{"data": "Experimental data of several laboratories", "organism": "Pseudomonas aeruginosa", "note": "Protocols differ between the studies behind these lines. ± marks the error that the study gave."}
{"Compound": "CC(C)C[C@H](NC(=O)[C@H](C)NC(=O)[C@H](CC(C)C)NC(=O)[C@H](CCCCN)NC(=O)[C@H](CCCCN)NC(=O)[C@H](Cc1c[nH]c2ccccc12)NC(=O)[C@H](CC(C)C)NC(=O)[C@H](CC(C)C)NC(=O)[C@H](C)NC(=O)[C@@H]1CCCN1C(=O)[C@H](CCCCN)NC(=O)[C@H](CCCCN)NC(=O)[C@H](CC(C)C)NC(=O)[C@H](C)NC(=O)[C@H](CC(C)C)NC(=O)[C@H](C)NC(=O)[C@H](CC(C)C)NC(=O)[C@H](CCCCN)NC(=O)[C@@H](N)CCCCN)C(=O)N[C@@H](C)C(=O)N[C@@H](CC(C)C)C(=O)N[C@@H](CCCCN)C(=O)N[C@@H](CCCCN)C(=O)N[C@@H](C)C(N)=O", "test": "broth microdilution", "test system": "PAO1", "conditions": "overnight, 37 °C", "measurement": "MIC50", "value": "9.16 ± 1.43 µM"}
{"Compound": "Cc1cc(F)ccc1CNO", "test": "microbial growth", "test system": "ATCC15692", "conditions": "8 h", "measurement": "MIC50", "value": "< 70 µg/mL"}
{"Compound": "CC(C)C[C@H](NC(=O)[C@H](C)NC(=O)[C@H](CC(C)C)NC(=O)[C@H](CCCCN)NC(=O)[C@H](CC(C)C)NC(=O)[C@H](CCCCN)NC(=O)[C@@H](N)CCCCN)C(=O)N[C@@H](C)C(=O)N[C@@H](CCCCN)C(=O)N[C@@H](CC(C)C)C(=O)N[C@@H](C)C(=O)N1CCC[C@H]1C(=O)N[C@@H](CC(C)C)C(=O)N[C@@H](Cc1c[nH]c2ccccc12)C(=O)N[C@@H](CCCCN)C(=O)N[C@@H](C)C(=O)N[C@@H](CC(C)C)C(=O)N[C@@H](C)C(=O)N[C@@H](CC(C)C)C(=O)N[C@@H](CCCCN)C(=O)N[C@@H](CC(C)C)C(=O)N[C@@H](CCCCN)C(=O)N[C@@H](CCCCN)C(=O)N[C@@H](C)C(N)=O", "test": "broth microdilution", "test system": "PAO1", "conditions": "overnight, 37 °C", "measurement": "MIC50", "value": "1.69 ± 0.09 µM"}
{"Compound": "C[C@@H](O)[C@H]1C(=O)N2C(C(=O)O)=C(S[C@@H]3CN[C@H](C(=O)N(C)C)C3)[C@H](C)[C@H]12", "test system": "drug-resistant", "conditions": "32 µg/mL, together with: TS-CATH 16 µg/mL", "measurement": "time to complete kill", "value": "8 h"}
{"Compound": "CC[C@H](C)[C@H](NC(=O)[C@H](C)NC(=O)[C@@H](NC(=O)[C@H](C)NC(=O)CNC(C)=O)[C@@H](C)O)C(=O)N[C@@H](CCCCN)C(=O)N[C@@H](CCC(N)=O)C(=O)N[C@H](C(=O)N[C@@H](CCCCN)C(=O)N[C@@H](CCCCN)C(=O)N[C@@H](CC(C)C)C(=O)N[C@@H](Cc1ccccc1)C(=O)N[C@@H](CCCCN)C(=O)N[C@@H](CCCCN)C(=O)N[C@@H](CCCCN)C(=O)NCC(=O)NCC(N)=O)C(C)C", "test system": "ATCC 9027", "conditions": "24 h, 37 °C", "measurement": "MBC", "value": "> 620 µM"}
{"Compound": "CC[C@H](C)CCCCC(=O)N[C@@H](CCN)C(=O)N[C@H](C(=O)N[C@@H](CCN)C(=O)N[C@H]1CCNC(=O)[C@H]([C@@H](C)O)NC(=O)[C@H](CCN)NC(=O)[C@H](CCN)NC(=O)[C@H](CC(C)C)NC(=O)[C@@H](CC(C)C)NC(=O)[C@H](CCN)NC1=O)[C@@H](C)O", "test system": "PAO1 vacJ mutant, cation-adjusted Mueller-Hinton broth", "scale": "reference: vacJ mutant over wild type", "measurement": "MIC decrease", "value": "2 fold"}
{"Compound": "CC[C@H](C)[C@H](N)C(=O)N[C@@H](CC(C)C)C(=O)N1CCC[C@H]1C(=O)N[C@@H](Cc1c[nH]c2ccccc12)C(=O)N[C@@H](CCCCN)C(=O)N[C@@H](Cc1c[nH]c2ccccc12)C(=O)N1CCC[C@H]1C(=O)N[C@@H](Cc1c[nH]c2ccccc12)C(=O)N[C@@H](Cc1c[nH]c2ccccc12)C(=O)N1CCC[C@H]1C(=O)N[C@@H](Cc1c[nH]c2ccccc12)C(=O)N[C@@H](CCCNC(=N)N)C(=O)N[C@@H](CCCNC(=N)N)C(N)=O", "test": "broth microdilution", "conditions": "18 h, 10 clinical isolates", "measurement": "MIC50", "value": "16 µg/mL"}
{"Compound": "CC[C@H](C)[C@H](NC(=O)[C@H](C)NC(=O)[C@@H](NC(=O)[C@H](C)NC(=O)CNC(=O)[C@H](CCSC)NC(=O)[C@H](CCC(N)=O)NC(=O)[C@H](CC(C)C)NC(=O)[C@H](CO)NC(=O)[C@@H](N)Cc1ccc(O)cc1)[C@@H](C)O)C(=O)N[C@@H](CCCCN)C(=O)N[C@@H](CCC(N)=O)C(=O)N[C@H](C(=O)N[C@@H](CCCCN)C(=O)N[C@@H](CCCCN)C(=O)N[C@@H](CC(C)C)C(=O)N[C@@H](Cc1ccccc1)C(=O)N[C@@H](CCCCN)C(=O)N[C@@H](CCCCN)C(=O)N[C@@H](CCCCN)C(=O)NCC(=O)NCC(N)=O)C(C)C", "test system": "ATCC 9027", "conditions": "24 h, 37 °C", "measurement": "MBC", "value": "310 µM"}
{"Compound": "CC(C)C[C@H](NC(=O)[C@H](C)NC(=O)[C@H](CCCCN)NC(=O)[C@H](C)NC(=O)[C@H](CC(C)C)NC(=O)[C@H](CCCCN)NC(=O)[C@H](CC(C)C)NC(=O)[C@H](Cc1c[nH]c2ccccc12)NC(=O)[C@H](CC(C)C)NC(=O)[C@H](CC(C)C)NC(=O)[C@H](C)NC(=O)[C@@H]1CCCN1C(=O)[C@H](CC(C)C)NC(=O)[C@H](CCCCN)NC(=O)[C@H](CC(C)C)NC(=O)[C@H](C)NC(=O)[C@H](CCCCN)NC(=O)[C@H](C)NC(=O)[C@H](CC(C)C)NC(=O)[C@H](CCCCN)NC(=O)[C@@H](N)CCCCN)C(=O)N[C@@H](CCCCN)C(=O)N[C@@H](CCCCN)C(=O)N[C@@H](C)C(N)=O", "test": "broth microdilution", "test system": "PAO1", "conditions": "overnight, 37 °C", "measurement": "MIC50", "value": "1.18 ± 0.53 µM"}
{"Compound": "O=C(O)c1cn(C2CC2)c2cc(N3CCNCC3)c(F)cc2c1=O", "test system": "ATCC 19429, Galleria mellonella larvae", "conditions": "5 µg single dose, given immediately after infection", "measurement": "survival", "value": "60%"}
{"Compound": "CC[C@H](C)[C@H](NC(=O)[C@H](C)NC(=O)[C@@H](NC(=O)[C@H](C)NC(=O)CN)[C@@H](C)O)C(=O)N[C@@H](CCCCN)C(=O)N[C@@H](CCC(N)=O)C(=O)N[C@H](C(=O)N[C@@H](CCCCN)C(=O)N[C@@H](CCCCN)C(=O)N[C@@H](CC(C)C)C(=O)N[C@@H](Cc1ccccc1)C(=O)N[C@@H](CCCCN)C(=O)N[C@@H](CCCCN)C(=O)N[C@@H](CCCCN)C(=O)NCC(=O)NCC(N)=O)C(C)C", "test system": "ATCC 9027", "conditions": "24 h, 37 °C", "measurement": "MBC", "value": "> 620 µM"}
{"note": "Excerpt of the above:"}
{"Compound": "CC[C@H](C)CCCCC(=O)N[C@@H](CCN)C(=O)N[C@H](C(=O)N[C@@H](CCN)C(=O)N[C@H]1CCNC(=O)[C@H]([C@@H](C)O)NC(=O)[C@H](CCN)NC(=O)[C@H](CCN)NC(=O)[C@H](CC(C)C)NC(=O)[C@@H](CC(C)C)NC(=O)[C@H](CCN)NC1=O)[C@@H](C)O", "test system": "PAO1 vacJ mutant, cation-adjusted Mueller-Hinton broth", "scale": "reference: vacJ mutant over wild type", "measurement": "MIC decrease", "value": "2 fold"}
{"Compound": "CC[C@H](C)[C@H](NC(=O)[C@H](C)NC(=O)[C@@H](NC(=O)[C@H](C)NC(=O)CN)[C@@H](C)O)C(=O)N[C@@H](CCCCN)C(=O)N[C@@H](CCC(N)=O)C(=O)N[C@H](C(=O)N[C@@H](CCCCN)C(=O)N[C@@H](CCCCN)C(=O)N[C@@H](CC(C)C)C(=O)N[C@@H](Cc1ccccc1)C(=O)N[C@@H](CCCCN)C(=O)N[C@@H](CCCCN)C(=O)N[C@@H](CCCCN)C(=O)NCC(=O)NCC(N)=O)C(C)C", "test system": "ATCC 9027", "conditions": "24 h, 37 °C", "measurement": "MBC", "value": "> 620 µM"}
